Experimental data collected from several papers.
Each numbered part is a random draw from the data of one study; scales do not carry over between parts.
Chain of UniProt P51817 (whole entry, looked up): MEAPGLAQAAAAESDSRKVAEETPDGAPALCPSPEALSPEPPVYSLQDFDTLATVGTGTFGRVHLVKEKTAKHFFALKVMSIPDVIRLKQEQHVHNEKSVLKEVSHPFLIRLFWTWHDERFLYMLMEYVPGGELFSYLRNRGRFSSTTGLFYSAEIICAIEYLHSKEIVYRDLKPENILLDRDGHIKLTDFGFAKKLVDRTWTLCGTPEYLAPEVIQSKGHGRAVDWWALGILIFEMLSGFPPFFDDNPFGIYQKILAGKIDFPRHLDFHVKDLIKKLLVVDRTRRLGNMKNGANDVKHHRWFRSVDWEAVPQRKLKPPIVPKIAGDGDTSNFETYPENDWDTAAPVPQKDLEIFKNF
Chain of UniProt P78356 (whole entry, looked up): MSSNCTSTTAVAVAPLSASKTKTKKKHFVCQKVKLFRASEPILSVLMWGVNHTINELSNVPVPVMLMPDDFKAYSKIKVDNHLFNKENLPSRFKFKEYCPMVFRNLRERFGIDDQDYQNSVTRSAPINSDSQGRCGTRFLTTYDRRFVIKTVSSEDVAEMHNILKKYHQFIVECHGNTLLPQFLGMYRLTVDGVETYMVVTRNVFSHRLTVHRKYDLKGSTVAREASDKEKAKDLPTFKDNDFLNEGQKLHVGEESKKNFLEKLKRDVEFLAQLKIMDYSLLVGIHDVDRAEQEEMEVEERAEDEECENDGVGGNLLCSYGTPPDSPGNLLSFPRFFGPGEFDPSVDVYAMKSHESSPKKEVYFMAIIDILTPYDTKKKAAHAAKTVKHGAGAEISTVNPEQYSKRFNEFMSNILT
Chain of UniProt O15146 (whole entry, looked up): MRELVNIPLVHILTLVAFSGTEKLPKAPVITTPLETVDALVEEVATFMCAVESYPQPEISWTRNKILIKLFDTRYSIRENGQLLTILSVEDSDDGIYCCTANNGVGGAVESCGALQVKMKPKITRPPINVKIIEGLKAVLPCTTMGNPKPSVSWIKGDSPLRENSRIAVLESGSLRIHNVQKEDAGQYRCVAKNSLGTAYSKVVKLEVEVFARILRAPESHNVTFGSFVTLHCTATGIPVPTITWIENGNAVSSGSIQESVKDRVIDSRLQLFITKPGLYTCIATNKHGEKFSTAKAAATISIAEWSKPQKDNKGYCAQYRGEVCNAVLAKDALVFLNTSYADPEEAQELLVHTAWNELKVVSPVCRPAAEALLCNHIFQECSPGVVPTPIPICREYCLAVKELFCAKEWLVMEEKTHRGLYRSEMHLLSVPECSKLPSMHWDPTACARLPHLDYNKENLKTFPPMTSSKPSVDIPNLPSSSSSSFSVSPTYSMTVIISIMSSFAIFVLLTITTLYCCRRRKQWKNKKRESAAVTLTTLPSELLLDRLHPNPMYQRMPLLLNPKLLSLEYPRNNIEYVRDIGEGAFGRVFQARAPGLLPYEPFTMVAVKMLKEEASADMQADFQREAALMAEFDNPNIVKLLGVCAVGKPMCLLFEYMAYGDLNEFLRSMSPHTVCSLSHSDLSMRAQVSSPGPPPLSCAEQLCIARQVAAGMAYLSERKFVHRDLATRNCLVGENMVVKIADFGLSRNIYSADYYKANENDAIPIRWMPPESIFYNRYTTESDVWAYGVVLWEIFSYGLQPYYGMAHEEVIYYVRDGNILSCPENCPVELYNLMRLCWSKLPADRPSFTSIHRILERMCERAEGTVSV
Chain of UniProt P11309 (whole entry, looked up): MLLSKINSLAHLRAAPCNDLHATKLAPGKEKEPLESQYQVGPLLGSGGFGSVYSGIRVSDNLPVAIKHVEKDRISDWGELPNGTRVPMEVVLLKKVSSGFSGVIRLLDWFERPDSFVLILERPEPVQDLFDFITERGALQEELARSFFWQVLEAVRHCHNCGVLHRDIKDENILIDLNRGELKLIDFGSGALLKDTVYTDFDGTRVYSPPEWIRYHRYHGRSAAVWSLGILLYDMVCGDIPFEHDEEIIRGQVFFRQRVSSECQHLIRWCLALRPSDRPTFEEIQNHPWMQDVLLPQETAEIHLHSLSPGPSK
Chain of UniProt P16234 (whole entry, looked up): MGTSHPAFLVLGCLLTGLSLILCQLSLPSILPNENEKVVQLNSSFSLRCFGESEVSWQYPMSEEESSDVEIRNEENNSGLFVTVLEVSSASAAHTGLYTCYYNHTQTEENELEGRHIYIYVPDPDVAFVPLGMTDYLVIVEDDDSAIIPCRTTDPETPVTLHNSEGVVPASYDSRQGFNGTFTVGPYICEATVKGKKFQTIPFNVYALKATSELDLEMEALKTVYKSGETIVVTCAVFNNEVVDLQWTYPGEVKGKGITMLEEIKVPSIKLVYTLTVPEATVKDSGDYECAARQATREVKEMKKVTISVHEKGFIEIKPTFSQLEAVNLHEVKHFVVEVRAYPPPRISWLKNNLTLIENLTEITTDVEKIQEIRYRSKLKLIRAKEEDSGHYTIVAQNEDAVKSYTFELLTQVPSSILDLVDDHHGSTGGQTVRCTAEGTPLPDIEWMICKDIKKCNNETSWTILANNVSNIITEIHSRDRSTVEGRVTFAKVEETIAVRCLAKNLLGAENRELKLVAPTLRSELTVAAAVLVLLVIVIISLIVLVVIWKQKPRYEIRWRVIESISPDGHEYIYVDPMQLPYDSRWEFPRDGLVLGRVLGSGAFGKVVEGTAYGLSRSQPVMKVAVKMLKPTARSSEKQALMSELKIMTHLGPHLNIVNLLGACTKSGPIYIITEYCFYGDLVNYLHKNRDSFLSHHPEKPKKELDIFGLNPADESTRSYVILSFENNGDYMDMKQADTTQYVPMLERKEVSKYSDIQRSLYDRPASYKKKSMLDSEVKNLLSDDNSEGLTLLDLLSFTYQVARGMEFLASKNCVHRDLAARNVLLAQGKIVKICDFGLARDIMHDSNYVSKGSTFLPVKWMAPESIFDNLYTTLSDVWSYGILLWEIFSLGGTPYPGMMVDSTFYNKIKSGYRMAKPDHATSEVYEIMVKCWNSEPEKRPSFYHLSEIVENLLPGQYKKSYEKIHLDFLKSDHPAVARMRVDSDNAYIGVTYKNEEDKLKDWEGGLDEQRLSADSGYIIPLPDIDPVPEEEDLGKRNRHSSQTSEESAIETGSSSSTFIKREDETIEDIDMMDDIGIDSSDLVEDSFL
Chain of UniProt P04049 (whole entry, looked up): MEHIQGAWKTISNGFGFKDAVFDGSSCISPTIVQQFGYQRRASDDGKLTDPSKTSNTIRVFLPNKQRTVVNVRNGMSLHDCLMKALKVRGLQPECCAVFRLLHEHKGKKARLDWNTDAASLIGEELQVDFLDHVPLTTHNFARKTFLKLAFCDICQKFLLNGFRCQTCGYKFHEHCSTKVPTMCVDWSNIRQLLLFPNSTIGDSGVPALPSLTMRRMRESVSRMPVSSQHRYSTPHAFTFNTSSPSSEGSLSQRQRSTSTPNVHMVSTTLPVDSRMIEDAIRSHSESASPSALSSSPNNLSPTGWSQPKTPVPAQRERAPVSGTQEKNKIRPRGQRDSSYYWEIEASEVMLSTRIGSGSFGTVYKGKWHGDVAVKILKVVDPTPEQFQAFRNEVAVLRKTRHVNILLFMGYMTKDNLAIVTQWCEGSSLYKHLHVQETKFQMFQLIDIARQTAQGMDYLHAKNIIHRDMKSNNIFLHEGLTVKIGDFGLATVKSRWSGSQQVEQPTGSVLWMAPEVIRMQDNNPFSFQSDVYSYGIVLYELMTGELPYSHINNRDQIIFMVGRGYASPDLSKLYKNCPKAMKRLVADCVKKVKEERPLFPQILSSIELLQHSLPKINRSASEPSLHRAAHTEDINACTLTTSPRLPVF
Chain of UniProt P11802 (whole entry, looked up): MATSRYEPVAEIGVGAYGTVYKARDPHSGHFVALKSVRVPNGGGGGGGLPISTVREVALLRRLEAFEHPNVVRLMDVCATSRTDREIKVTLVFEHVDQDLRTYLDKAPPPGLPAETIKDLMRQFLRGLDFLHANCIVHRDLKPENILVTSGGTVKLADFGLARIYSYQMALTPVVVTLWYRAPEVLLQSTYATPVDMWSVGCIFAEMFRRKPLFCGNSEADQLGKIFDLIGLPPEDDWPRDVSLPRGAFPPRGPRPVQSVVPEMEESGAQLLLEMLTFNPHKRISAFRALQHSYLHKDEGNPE
Chain of UniProt Q04771 (whole entry, looked up): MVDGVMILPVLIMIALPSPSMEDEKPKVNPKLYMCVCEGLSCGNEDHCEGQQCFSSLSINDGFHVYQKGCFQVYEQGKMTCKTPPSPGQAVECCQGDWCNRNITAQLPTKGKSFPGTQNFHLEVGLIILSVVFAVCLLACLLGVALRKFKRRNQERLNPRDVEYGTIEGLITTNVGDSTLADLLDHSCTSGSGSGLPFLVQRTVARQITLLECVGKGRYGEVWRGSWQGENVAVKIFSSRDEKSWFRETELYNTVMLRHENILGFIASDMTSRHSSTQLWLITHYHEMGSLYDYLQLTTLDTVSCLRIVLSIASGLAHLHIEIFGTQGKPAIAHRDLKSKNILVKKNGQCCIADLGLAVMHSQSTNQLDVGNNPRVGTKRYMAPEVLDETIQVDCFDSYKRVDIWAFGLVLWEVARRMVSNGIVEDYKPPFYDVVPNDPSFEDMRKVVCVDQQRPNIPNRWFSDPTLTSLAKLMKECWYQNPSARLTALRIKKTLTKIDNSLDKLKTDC

Study 1
SMILES: [2H]c1c([2H])c([C@]2([2H])CCCN2C(=O)C(C)(C)Oc2ccc3cn[nH]c3c2)c([2H])c([2H])c1C([2H])([2H])[2H]
Read-out: binding
Method: competition with immobilised ligand
Concentration: 1 µM
target	remaining binding
PIP4K2B (Homo sapiens, UniProt P78356)	100%
MUSK (Homo sapiens, UniProt O15146)	67%
PIM1 (Homo sapiens, UniProt P11309)	96%
ERBB3 (Homo sapiens, UniProt P21860)	100%
PDGFRA (Homo sapiens, UniProt P16234)	100%
Cyclin-dependent kinase 4, with cyclin D1 (CDK4, Homo sapiens, UniProt P11802)	92%
PRKX (Homo sapiens, UniProt P51817)	75%
RAF1 (Homo sapiens, UniProt P04049)	100%

Further values, each from its own experiment
SMILES	target or system	test	conditions	endpoint	result
CNc1ncc2c(/C=C/C(=O)N3CCC(OC)CC3)nn(Cc3cccc(C(F)(F)F)c3)c2n1	ACVR1 (Homo sapiens, UniProt Q04771)	enzyme activity, inhibitor, radiometric	1 µM	remaining activity	92%
C=CC(=O)N1CCC(COCC(=O)N2CCN(c3nc(-c4cnc(N)nc4C(F)F)nc(N4CCOC[C@@H]4C)n3)CC2)CC1	FLT3 (Homo sapiens, UniProt P36888, K663Q)	binding, competition with immobilised ligand	1 µM	remaining binding	61%
CCCCC(=O)Nc1ccc(-c2ccc3ncn(CCC)c(=O)c3c2)cn1	FLT3 (Homo sapiens, UniProt P36888, R834Q)	binding, competition with immobilised ligand	0.5 µM	remaining binding	100%
Cc1cc([C@@H](C)Nc2ccccc2C(=O)O)c2nc(N3CCC(F)(F)CC3)c(C#N)c(=O)n2c1	FLT3 (Homo sapiens, UniProt P36888)	binding, competition with immobilised ligand	10 µM	remaining binding	96%
CCCN(O)N=Nc1ccc(S(=O)(=O)Nc2onc(C)c2C)cc1	–	DPPH scavenging, absorbance	240 µg/mL	inhibition	24.9%
COc1cc(-c2cncc3c2CN(C)Cc2cc(N4CCNCC4)ccc2-3)cc(OC)c1OC	PRKX (Homo sapiens, UniProt P51817)	enzyme activity, inhibitor	1 µM	remaining activity	104%
C1=C/COCc2cc(ccc2OCCN2CCCC2)Nc2nccc(n2)-c2cccc(c2)COC/1	FLT3 (Homo sapiens, UniProt P36888, D835V)	binding	0.1 µM	remaining binding	0%
Cc1ccc(N(O)N=Nc2ccc(S(=O)(=O)Nc3onc(C)c3C)cc2)cc1	–	DPPH scavenging, absorbance	20 µg/mL	inhibition	3.98%

For quick reference, copied from above (study 1):
target	remaining binding
PIP4K2B (Homo sapiens, UniProt P78356)	100%
MUSK (Homo sapiens, UniProt O15146)	67%
